# Assay results gathered from unrelated publications.
# Values joined by “and” are separate records of one study, mostly repeats; a detail may differ. ± gives the spread as reported.
# UniProt Q007T0, sequence (whole entry, looked up): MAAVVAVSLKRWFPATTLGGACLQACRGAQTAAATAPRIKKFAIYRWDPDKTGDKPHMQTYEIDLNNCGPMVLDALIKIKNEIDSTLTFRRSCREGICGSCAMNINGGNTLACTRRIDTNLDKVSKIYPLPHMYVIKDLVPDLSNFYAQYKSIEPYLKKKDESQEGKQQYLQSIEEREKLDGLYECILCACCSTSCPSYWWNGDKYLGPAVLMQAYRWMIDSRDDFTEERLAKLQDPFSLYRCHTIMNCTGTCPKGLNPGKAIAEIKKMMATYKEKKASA
# UniProt D0VWV4, sequence (whole entry, looked up): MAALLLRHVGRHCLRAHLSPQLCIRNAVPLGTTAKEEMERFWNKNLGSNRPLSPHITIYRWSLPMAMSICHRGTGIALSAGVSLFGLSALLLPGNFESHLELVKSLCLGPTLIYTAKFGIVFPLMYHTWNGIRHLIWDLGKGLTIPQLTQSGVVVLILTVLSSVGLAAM
# UniProt A5GZW8, sequence (whole entry, looked up): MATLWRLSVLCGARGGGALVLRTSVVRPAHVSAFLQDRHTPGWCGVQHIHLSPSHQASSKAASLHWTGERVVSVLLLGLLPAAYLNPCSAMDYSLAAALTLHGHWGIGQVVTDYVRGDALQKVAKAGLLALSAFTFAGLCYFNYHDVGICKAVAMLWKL
# UniProt Q62351, sequence (whole entry, looked up): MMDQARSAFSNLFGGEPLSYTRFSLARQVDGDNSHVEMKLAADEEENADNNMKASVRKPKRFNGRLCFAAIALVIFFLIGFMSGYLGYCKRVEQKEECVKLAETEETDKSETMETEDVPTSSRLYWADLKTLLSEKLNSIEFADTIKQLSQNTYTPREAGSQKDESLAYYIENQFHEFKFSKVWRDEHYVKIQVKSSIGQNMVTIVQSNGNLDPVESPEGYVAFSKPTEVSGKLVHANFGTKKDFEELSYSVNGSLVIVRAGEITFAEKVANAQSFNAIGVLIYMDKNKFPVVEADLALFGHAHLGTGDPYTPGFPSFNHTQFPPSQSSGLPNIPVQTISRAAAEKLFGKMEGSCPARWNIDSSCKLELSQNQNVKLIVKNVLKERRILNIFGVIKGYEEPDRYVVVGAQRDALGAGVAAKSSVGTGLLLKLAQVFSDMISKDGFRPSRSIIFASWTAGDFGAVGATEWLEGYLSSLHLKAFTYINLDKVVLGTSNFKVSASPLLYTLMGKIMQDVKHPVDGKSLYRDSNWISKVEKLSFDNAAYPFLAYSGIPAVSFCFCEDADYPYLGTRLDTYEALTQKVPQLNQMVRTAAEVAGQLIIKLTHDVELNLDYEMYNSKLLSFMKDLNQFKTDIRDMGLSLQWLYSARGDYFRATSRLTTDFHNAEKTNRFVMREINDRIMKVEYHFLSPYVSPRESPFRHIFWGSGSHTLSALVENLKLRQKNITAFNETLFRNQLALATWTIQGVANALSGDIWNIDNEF
# UniProt P43144, sequence (whole entry, looked up): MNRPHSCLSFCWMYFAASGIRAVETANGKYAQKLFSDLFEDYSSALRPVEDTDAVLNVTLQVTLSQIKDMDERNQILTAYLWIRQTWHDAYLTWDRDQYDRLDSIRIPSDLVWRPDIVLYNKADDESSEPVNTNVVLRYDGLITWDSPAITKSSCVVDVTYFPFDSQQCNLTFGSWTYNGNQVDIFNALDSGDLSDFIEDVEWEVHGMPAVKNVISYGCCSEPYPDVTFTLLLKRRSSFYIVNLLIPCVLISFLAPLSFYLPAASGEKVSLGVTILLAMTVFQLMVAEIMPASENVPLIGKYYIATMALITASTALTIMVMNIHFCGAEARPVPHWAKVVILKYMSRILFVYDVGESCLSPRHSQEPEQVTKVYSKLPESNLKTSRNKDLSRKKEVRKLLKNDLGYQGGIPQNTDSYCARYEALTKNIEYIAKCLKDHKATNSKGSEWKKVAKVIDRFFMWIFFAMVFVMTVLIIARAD
# UniProt Q9JLB5, sequence (whole entry, looked up): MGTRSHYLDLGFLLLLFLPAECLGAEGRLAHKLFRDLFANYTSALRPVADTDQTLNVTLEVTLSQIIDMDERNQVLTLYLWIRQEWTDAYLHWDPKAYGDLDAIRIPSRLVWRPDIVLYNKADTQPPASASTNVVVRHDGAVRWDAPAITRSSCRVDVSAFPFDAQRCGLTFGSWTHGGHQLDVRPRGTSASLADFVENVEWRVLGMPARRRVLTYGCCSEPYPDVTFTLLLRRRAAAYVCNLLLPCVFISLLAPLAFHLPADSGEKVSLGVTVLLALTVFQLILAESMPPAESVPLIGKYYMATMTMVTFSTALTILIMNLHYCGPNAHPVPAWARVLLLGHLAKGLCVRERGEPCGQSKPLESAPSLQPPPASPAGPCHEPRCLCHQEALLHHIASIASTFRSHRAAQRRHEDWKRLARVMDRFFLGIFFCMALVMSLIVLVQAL
# UniProt Q86UE8, sequence (whole entry, looked up): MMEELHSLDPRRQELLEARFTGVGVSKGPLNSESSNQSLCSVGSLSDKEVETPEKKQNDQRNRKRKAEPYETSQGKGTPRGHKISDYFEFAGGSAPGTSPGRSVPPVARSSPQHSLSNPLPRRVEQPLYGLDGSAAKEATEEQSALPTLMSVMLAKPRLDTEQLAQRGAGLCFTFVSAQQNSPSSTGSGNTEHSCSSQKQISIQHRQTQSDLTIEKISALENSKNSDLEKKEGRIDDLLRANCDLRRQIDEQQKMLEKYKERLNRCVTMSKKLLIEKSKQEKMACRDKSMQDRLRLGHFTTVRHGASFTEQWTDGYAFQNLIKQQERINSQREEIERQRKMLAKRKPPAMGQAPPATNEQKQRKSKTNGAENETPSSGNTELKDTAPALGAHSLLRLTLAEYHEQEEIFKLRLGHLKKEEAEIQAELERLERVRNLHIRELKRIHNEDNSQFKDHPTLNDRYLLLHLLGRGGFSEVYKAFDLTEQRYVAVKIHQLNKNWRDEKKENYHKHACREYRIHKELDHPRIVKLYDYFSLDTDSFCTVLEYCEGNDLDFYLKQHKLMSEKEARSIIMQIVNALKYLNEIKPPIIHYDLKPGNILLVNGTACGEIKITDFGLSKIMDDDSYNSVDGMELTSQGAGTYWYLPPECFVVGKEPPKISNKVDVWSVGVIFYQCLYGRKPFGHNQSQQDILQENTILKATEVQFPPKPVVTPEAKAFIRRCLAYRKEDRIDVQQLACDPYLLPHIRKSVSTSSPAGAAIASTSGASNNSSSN
# UniProt P47870, sequence (whole entry, looked up): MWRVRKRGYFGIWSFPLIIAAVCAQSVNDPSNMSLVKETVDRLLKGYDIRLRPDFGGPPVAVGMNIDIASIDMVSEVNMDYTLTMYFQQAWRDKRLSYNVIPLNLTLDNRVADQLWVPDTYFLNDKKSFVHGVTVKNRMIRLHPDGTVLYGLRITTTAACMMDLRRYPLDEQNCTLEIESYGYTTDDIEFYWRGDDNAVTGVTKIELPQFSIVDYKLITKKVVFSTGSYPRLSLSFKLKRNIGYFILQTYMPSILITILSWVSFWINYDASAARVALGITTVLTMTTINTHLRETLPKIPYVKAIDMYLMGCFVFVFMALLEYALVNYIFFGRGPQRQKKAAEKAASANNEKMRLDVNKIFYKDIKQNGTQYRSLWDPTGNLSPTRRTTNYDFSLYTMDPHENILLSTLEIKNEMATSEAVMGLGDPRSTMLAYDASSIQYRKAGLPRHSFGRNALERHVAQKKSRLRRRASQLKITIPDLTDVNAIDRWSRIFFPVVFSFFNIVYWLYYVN
# UniProt P20595, sequence (whole entry, looked up): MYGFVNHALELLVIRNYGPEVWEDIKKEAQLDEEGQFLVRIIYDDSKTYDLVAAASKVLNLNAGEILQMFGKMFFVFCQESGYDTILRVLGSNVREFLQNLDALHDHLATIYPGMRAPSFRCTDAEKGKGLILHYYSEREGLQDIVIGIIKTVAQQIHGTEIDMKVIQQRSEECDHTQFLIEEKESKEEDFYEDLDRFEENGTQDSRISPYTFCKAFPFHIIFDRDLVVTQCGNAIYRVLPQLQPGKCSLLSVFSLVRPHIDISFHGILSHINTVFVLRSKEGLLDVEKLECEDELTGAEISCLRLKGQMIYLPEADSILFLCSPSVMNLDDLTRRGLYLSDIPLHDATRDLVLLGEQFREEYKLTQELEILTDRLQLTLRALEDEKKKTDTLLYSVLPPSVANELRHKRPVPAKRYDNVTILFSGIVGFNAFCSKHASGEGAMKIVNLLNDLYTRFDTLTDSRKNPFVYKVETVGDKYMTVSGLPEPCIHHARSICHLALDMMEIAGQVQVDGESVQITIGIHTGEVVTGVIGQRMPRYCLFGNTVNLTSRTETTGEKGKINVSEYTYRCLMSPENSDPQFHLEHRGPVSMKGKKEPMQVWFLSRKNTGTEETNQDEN
# UniProt O43194, sequence (whole entry, looked up): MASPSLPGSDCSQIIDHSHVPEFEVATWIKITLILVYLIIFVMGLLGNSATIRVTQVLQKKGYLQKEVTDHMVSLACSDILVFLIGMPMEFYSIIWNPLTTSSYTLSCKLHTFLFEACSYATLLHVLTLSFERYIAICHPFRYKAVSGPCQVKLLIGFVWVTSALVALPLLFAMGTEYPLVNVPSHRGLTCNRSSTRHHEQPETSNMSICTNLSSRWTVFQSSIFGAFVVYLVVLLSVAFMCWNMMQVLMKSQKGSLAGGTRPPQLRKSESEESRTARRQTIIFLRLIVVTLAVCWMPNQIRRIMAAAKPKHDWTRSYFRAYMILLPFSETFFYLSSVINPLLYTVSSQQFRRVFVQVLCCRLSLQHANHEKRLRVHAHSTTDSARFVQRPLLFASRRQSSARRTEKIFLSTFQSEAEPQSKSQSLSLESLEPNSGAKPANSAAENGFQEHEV
# UniProt P42574, sequence (whole entry, looked up): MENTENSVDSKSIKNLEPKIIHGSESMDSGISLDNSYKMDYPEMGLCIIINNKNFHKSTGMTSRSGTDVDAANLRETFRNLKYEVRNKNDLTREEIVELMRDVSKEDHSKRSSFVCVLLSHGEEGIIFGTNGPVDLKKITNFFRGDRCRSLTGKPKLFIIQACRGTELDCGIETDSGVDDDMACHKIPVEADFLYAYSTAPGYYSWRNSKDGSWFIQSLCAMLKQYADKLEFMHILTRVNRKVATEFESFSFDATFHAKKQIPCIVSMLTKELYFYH
SMILES,target,test,system,conditions,how to read,quantity,value
Nc1ccc(O)c(C(=O)O)c1,"ppk (Escherichia coli, UniProt P0A7B1, E245K)",inhibitor,,1 mM,baseline: DMSO,polyphosphate synthesis,inhibited
CCN(CC)CCCC[C@H](NC(=O)[C@H](CC(C)C)NC(=O)[C@H](C)NC(=O)[C@H](Cc1ccccc1)NC(=O)c1ccc(C(C)(C)C)cc1)C(=O)N[C@@H](CO)C(=O)OC,"TACR3 (Homo sapiens, UniProt P29371)","antagonist, radioligand binding",,10 µM,baseline: control binding,specific binding,92.4%
Nc1ncnc2c1ncn2[C@@H]1O[C@H](COP(=O)(O)OP(=O)(O)O)[C@@H](O)[C@H]1O,"Cell cycle histidine kinase CckA, R374A; cytoplasmic region (Caulobacter vibrioides, UniProt Q9X688, R374A)","binding, ITC",,with: without c-di-GMP,,ΔS,8.41 cal/mol/K
CC=O,"ADH1 (Saccharomyces cerevisiae, UniProt P00330, H49Q)","turnover number pH profile, substrate",,,,pK,9.27 ± 0.04
CCCCCCCCCC(=O)N[C@H]1CCOC1=O,"Regulatory protein SdiA (sdiA, Escherichia coli, UniProt P07026)",,,,,Emax,78.8%
O=C(O)COP(=O)(O)O,"TPI1 (Saccharomyces cerevisiae, UniProt P00942, S211G/Y208T)","enzyme activity, competitive inhibitor, GPDH/NADH-coupled",,"pH 5.7, 25 °C, ionic strength 0.1 NaCl, with: glyceraldehyde 3-phosphate substrate",baseline: mutant over wild type,Ki ratio,23
O=C(CF)NC1C(O)CC(OC2C(O)C(CO)OC(Oc3ccc([N+](=O)[O-])cc3)C2O)(C(=O)O)OC1C(O)C(O)CO (centres unmarked),"Sialidase-2 (Homo sapiens, UniProt Q9Y3R4)",substrate,,"0.3 mM, 30 min, pH 5.0, 37 °C",,sialic acid release,66%
O=C(Nc1cccnn1)N1CCC(=Cc2cccc(Oc3ccc(C(F)(F)F)cn3)c2)CC1,"AVPR2 (Homo sapiens, UniProt P30518)",binding,,"10 µM, with: [3H][Arg8]vasopressin",,inhibition,4%
CC(=O)N[C@@H](Cc1c[nH]c2ccccc12)C(=O)OCc1cc(C(F)(F)F)cc(C(F)(F)F)c1,"Substance-P receptor (Cavia porcellus, UniProt P30547)","substance P-induced contraction, antagonist",guinea pig ileum,with: naloxone 1 µM,,Ke,250 ± 87 nM
CCOC(=O)CC(SP(=O)(OC)OC)C(=O)OCC (centres unmarked),"uncharacterized protein (Anopheles coluzzii, UniProt A0A6E8VQK1)","enzyme activity, inhibitor",Sf9 cell homogenate,"0.004587 µM, 0.1667 h, with: α-naphthyl acetate substrate",baseline: no inhibitor,remaining activity,101%
O=C(Nc1cnccc1Cl)N1CCN(Cc2ccc3c(c2)OC(F)(F)O3)CC1,"PTGIR (Homo sapiens, UniProt P43119)","radioligand binding, inhibitor",,"50 µM, human, with: [3H]iloprost",,inhibition,10%
COc1cc(Nc2ncc(F)c(Nc3ccc4c(n3)NC(=O)C(C)(C)O4)n2)cc(OC)c1OC,"TLK2 (Homo sapiens, UniProt Q86UE8)",KINOMEscan,,10 µM,,inhibition,86%
O=C(c1ccc(Cl)cc1)N1CCN2C(=O)N(OC(=O)N3CCOc4ccccc43)C(=O)C2C1 (centres unmarked),"ACTB (Homo sapiens, UniProt P60709)",MS-based ABPP,SW-620 conditioned medium,10 µM,"baseline: compound over DMSO, lower = more inhibition",peptide ratio,1 and 1.43 and 1.01 and 0.96 and 0.92 and 1.13 and 0.89
C[C@H]1COCCN1c1nc(NCc2cccnc2C(F)(F)F)c2cccnc2n1,"PDE4D (Homo sapiens, UniProt Q08499)",binding,,CEREP panel,,IC50,14.6 µM
C[C@H]1CN(c2n[nH]c3nc(N[C@H]4CC[C@H](NS(=O)(=O)CCC(F)(F)F)CC4)ncc23)CCO1,"ILK (Homo sapiens, UniProt Q13418)","inhibitor, Kinobeads competition profiling",,20 µM,baseline: vehicle,relative abundance,1.09
N=C(N)NCCC[C@@H](N)C(=O)O,Alkaliphilus oremlandii ArgR,substrate,,,,Km,385 ± 26 µM
COc1cc(Br)cc(Br)c1Oc1cc(Br)cc(Br)c1O,"SULT1E1 (Homo sapiens, UniProt P49888)","sulfonation, substrate",,,,Vmax/Km,8400 µL/min/mg
O=C(O)CCCCN(CCc1cc(F)ccc1OCc1ccc(-c2ccc(C(F)(F)F)cc2)cc1)Cc1ccc(C(=O)O)cc1,"Gucy1b1, with alpha1 subunit (Rattus norvegicus, UniProt P20595)",,rat cells,"concentration not given, compound alone",baseline: untreated control,cGMP level,4.02 ± 1.23 fold
COc1ccc(N2C(=O)N(c3c(C)cccc3Cl)Cc3cnc(Nc4ccc(C5CCN(C)CC5)cc4OC)nc32)nc1,"ZAP70 (Homo sapiens, UniProt P43403)",kinase activity,,0.5 µM,,inhibition,1.12%
O=C(NNC(=O)c1csnn1)c1ccc(Cl)cc1,"Acetyl-CoA synthetase (Cryptococcus neoformans, UniProt J9VFT1)",,,781 nM,,remaining activity,78.1%
N#Cc1ccc(CNc2ccc3c(c2)B(O)OC3)cc1,"Genome polyprotein, NS2B-NS3 protease (dengue virus type 2, UniProt P29990)","enzyme activity, FRET",dengue virus serotype 2,"50 µM, with: substrate 50 µM",,inhibition,22 ± 4%
CC[C@@H](C)[C@@H](NC(=O)[C@@H](Cc1ccc(O)cc1)NC(=O)[C@H]1CCCN1C(=O)[C@@H](CCCNC(=N)N)NC(=O)[C@H](N)Cc1c[nH]cn1)C(=O)N[C@H](C)C(=O)N[C@H](Cc1c[nH]cn1)C(=O)N[C@H](CCCNC(=N)N)C(=O)N[C@H](CCCCNC(=O)c1cccc(S(=O)(=O)F)c1)C(=O)N[C@H](Cc1ccc(O)cc1)C(=O)N[C@H](CO)C(=O)N[C@H](Cc1ccccc1)C(N)=O,"Transferrin receptor protein 1 (Tfrc, Mus musculus, UniProt Q62351)",flow cytometry,RAW264.7,"48 h, pH 7.4, unit not given",baseline: 0 h,surface expression,0.533 and 0.921
CN1CCN(c2cc(-c3ccncc3)c(-c3ccc4ccccc4c3)nn2)CC1,"GPR39 (Homo sapiens, UniProt O43194)","agonist, FLIPR",,12.5 µM,,activation,-0.6%
CC[C@H](C)[C@H](NC(=O)[C@H](CO)NC(=O)[C@H](Cc1ccc(O)cc1)NC(=O)[C@H](CC(=O)O)NC(=O)[C@H](CO)NC(=O)[C@@H](NC(=O)[C@H](Cc1ccccc1)NC(=O)[C@@H](NC(=O)CNC(=O)[C@H](CCC(=O)O)NC(=O)[C@H](C)NC(=O)[C@@H](N)Cc1ccc(O)cc1)[C@@H](C)O)[C@@H](C)CC)C(=O)N[C@@H](C)C(=O)N[C@@H](CCSC)C(=O)N[C@@H](CC(=O)O)C(=O)N[C@@H](CCCCN)C(=O)N[C@H](C(=O)N[C@@H](Cc1c[nH]cn1)C(=O)N[C@@H](CCC(N)=O)C(=O)N[C@@H](CCC(N)=O)C(=O)N[C@@H](CC(=O)O)C(=O)N[C@@H](Cc1ccccc1)C(=O)N[C@H](C(=O)N[C@@H](CC(N)=O)C(=O)N[C@@H](Cc1c[nH]c2ccccc12)C(=O)N[C@@H](CC(C)C)C(=O)N[C@@H](CC(C)C)C(=O)N[C@@H](C)C(=O)N[C@@H](CCC(N)=O)C(=O)N[C@@H](CCCCN)C(=O)NCC(=O)N[C@@H](CCCCN)C(=O)N[C@@H](CCCCN)C(=O)N[C@@H](CC(N)=O)C(=O)N[C@@H](CC(=O)O)C(=O)N[C@@H](Cc1c[nH]c2ccccc12)C(=O)N[C@@H](CCCCN)C(=O)N[C@@H](Cc1c[nH]cn1)C(=O)N[C@@H](CC(N)=O)C(=O)N[C@H](C(=O)N[C@H](C(=O)N[C@@H](CCC(N)=O)C(=O)O)[C@@H](C)O)[C@@H](C)CC)C(C)C)[C@@H](C)CC,"Gastric inhibitory polypeptide receptor (Mus musculus, UniProt Q0P543)","β-arrestin-2 recruitment, agonist",,,,Emax,104%
C=C(CN(C(=O)c1c(C(F)F)nn(C)c1F)C1CC1)c1ccc(Cl)cc1Cl,"SDHD/SDHC/SDHB (Sus scrofa, UniProt A5GZW8+D0VWV4+Q007T0)","enzyme activity, inhibitor, DCIP reduction",pig,"0.2 µM, with: DCIP 40 µM",,reaction velocity,0.00875 µM/s and 0.00982 µM/s and 0.00986 µM/s
CC(C)(C)[C@]1(O)CC2OC(=O)CC23C(=O)OC2OC(=O)[C@H](O)C231 (some centres unmarked),"Rdl (Drosophila melanogaster, UniProt P25123)","ion current, inhibitor, two-electrode voltage clamp",,"from τoff, with: GABA at EC50",,koff,0.083 s⁻¹
COc1ccc2[nH]c3c(c2c1)CCN(C)CC3.Cl,"Nicotinic acetylcholine receptor alpha9/alpha10 (Rattus norvegicus, UniProt P43144+Q9JLB5)","ion current, inhibitor, two-electrode voltage clamp",Xenopus laevis oocytes,"3 µM, rat receptor, with: acetylcholine 10 µM",,recovery time constant,9.5 s
Cn1nccc1[C@]1(CNC(=O)c2ccc(F)c(F)c2-c2ccc(C(F)(F)F)cc2)NC(=O)NC1=O,"Caspase-3 (CASP3, Homo sapiens, UniProt P42574)",inhibitor,,,baseline: CASP3 over target,selectivity ratio,> 16700
COc1ncccc1-c1cnn2ccc(N3CCN(C(=O)OC(C)C)CC3)nc12,"Ribosomal protein S6 kinase alpha-6, C-terminal kinase domain (RPS6KA6, Homo sapiens, UniProt Q9UK32)",KINOMEscan binding,,1 µM,baseline: untreated control,remaining binding,100%
NCc1cc(=O)[nH]o1,"GABA-A receptor; GABA-A site (alpha1/beta2 interface), with gamma-2 subunit (Homo sapiens, UniProt P14867+P47870)","ion current, whole-cell patch clamp","HEK293, stably transfected",,,EC30,2.7 µM
[2H]c1c([2H])c([C@]2([2H])CCCN2C(=O)C(C)(C)Oc2ccc3cn[nH]c3c2)c([2H])c([2H])c1C([2H])([2H])[2H],"JAK2 (Homo sapiens, UniProt O60674)",KINOMEscan,,1 µM,baseline: DMSO control,remaining binding,86%
CN(C(=O)n1cnc(-c2ccc[n+]([O-])c2)c1)C1CCCCC1,"dopamine D4.2 receptor, human",binding,,"10 µM, with: [3H]spiperone",,inhibition,-2%
O=c1c2ccccc2oc2cc(OCCCCc3ccccc3)ccc12,"ache (Electrophorus electricus, UniProt O42275)",enzyme activity,,"2.91 µM, with: substrate 1.73 mM",higher = faster reaction,reaction velocity,0.0014 a.u.
CC(C)[C@@H](O)CC[C@@H](C)[C@H]1CC[C@H]2[C@@H]3CC=C4C[C@@H](O)CC[C@]4(C)[C@H]3CC[C@]12C,"Glutamate NMDA receptor; GRIN1/GRIN2B (GRIN1/GRIN2B, Homo sapiens, UniProt Q05586+Q13224, F550A)","positive allosteric modulator, two-electrode voltage clamp",Xenopus oocytes expressing GluN2B-F550A,"10 µM, 0.02% cremophor, with: 100 µM glutamate and glycine",baseline: without compound,current response,452 ± 23%
COc1ccc(S(=O)(=O)N2CCCCC2)cc1C,panel of GPCRs and ion channels,radioligand binding,,10 µM,all targets,radioligand displacement,< 30%
NS(=O)(=O)C(F)(F)C(F)(F)C(F)(F)C(F)(F)C(F)(F)C(F)(F)C(F)(F)C(F)(F)F,"FABP1 (Homo sapiens, UniProt P07148)",affinity selection mass spectrometry,,"100 nM, with: pooled compounds",baseline: other proteins,binding fold change,670
COc1c(Cl)cccc1Nc1c(-c2ccncc2OC[C@@H]2COCCO2)[nH]c2c1C(=O)NCC2,"ERBB2 (Homo sapiens, UniProt P04626)","kinase activity, TR-FRET",,,baseline: DDR2 IC50 over HER2 IC50,selectivity ratio,> 100 fold
COc1cc(N)c(Cl)cc1C(=O)NC1CN2CCC1CC2 (centres unmarked),"Probable G-protein coupled receptor 142 (Homo sapiens, UniProt Q7Z601)","β-arrestin recruitment, TANGO luminescence, measured: GPR142",,concentration not given,baseline: basal luminescence,log2 fold change,0.191
